{"data": "Results pooled from the literature", "note": "A part holds a random share of what one study measured. Substitutions count along the parent as printed."}
{"data": "Series 1", "target": "Sal-like protein 4, full length isoform A (SALL4, Homo sapiens, UniProt Q9UJQ4, residues 1-1053)", "method": "universal PBM", "form": "double-stranded DNA, one strand shown", "matrix": "in vitro", "concentration": "600 nM", "notes": "8-mer, flanks averaged, mean of replicates", "reading": "higher = stronger binding", "chain of UniProt Q9UJQ4 (whole entry, looked up)": "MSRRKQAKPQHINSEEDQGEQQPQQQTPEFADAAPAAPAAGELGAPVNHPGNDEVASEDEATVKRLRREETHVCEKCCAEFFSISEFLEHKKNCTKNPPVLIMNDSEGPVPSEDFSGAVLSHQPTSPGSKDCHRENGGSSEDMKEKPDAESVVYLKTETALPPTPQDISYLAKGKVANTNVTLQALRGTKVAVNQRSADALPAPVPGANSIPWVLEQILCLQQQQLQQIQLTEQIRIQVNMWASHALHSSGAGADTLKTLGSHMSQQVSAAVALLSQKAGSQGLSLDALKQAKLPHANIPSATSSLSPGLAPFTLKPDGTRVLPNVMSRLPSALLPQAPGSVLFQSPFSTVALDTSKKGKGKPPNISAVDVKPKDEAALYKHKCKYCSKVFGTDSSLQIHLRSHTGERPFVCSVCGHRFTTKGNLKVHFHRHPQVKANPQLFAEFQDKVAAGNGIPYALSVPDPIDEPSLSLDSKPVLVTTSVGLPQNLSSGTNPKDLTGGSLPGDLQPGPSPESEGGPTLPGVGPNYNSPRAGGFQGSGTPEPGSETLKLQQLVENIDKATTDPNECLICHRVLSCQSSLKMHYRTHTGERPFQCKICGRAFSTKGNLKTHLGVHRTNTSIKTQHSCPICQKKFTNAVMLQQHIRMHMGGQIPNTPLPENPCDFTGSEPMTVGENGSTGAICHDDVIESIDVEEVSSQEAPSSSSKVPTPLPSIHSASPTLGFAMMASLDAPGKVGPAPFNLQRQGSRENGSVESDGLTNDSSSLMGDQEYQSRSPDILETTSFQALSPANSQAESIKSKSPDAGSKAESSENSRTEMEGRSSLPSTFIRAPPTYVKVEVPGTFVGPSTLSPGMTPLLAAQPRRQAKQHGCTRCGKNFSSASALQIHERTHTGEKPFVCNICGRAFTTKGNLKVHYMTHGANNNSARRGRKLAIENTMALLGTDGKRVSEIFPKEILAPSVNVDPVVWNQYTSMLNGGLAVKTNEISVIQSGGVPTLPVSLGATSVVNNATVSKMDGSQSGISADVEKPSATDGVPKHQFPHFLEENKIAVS"}
{"Sequence": "CTACTACC", "E-score": 0.0228}
{"Sequence": "GTTTGGAA", "E-score": 0.162}
{"Sequence": "CCAAGTCA", "E-score": -0.0437}
{"Sequence": "GAAACTAA", "E-score": 0.0547}
{"Sequence": "AATTGCTC", "E-score": -0.0381}
{"Sequence": "GGTTGGAA", "E-score": -0.159}
{"Sequence": "ACGGCGAT", "E-score": -0.0599}
{"Sequence": "AATGCGCC", "E-score": -0.137}
{"data": "Series 2", "target": "TAR DNA-binding protein 43, full length, His tag (TARDBP, Homo sapiens, UniProt Q13148, residues 1-414)", "method": "RNA Bind-n-Seq", "form": "RNA", "matrix": "in vitro", "concentration": "20 nM", "notes": "6-mer, flanks averaged, single round", "added": "150 mM KCl", "reference": "input library", "reading": "higher = stronger binding"}
{"Sequence": "UCGGAA", "6-mer enrichment (R)": 0.811}
{"Sequence": "UCAAUA", "6-mer enrichment (R)": 0.605}
{"Sequence": "UUCUGU", "6-mer enrichment (R)": 0.609}
{"Sequence": "CAGGCG", "6-mer enrichment (R)": 1.69}
{"Sequence": "CAGUAA", "6-mer enrichment (R)": 0.646}
{"Sequence": "GGUUCU", "6-mer enrichment (R)": 0.777}
{"Sequence": "CCCGGU", "6-mer enrichment (R)": 0.723}
{"Sequence": "UUUAAC", "6-mer enrichment (R)": 0.595}
{"data": "Series 3", "target": "Histone acetyltransferase KAT6A, winged helix 1, GST fusion (KAT6A, Homo sapiens, UniProt Q92794, residues 1-85)", "method": "protein binding microarray", "form": "double-stranded DNA, one strand shown", "matrix": "in vitro", "concentration": "not given", "notes": "8-mer, flanks averaged, mean of 2 arrays, mostly near background", "reference": "not given", "reading": "higher = stronger binding", "Residues (chain)": "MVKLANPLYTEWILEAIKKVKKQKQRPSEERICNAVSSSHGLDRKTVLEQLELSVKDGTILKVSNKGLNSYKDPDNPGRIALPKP"}
{"Sequence": "CGACGCCG", "E-score": 0.454}
{"Sequence": "TAAGGTAA", "E-score": -0.102}
{"Sequence": "ACTTCGCC", "E-score": 0.0388}
{"Sequence": "AGCTGCTA", "E-score": -0.268}
{"Sequence": "CGAATGTA", "E-score": -0.00464}
{"Sequence": "ACATTTTG", "E-score": -0.299}
{"Sequence": "CTACTAGC", "E-score": 0.0264}
{"Sequence": "CCCGACTC", "E-score": 0.0664}
{"data": "Mixed results", "starting sequence": "viral docking peptide; TSVRRALFTGGSD"}
{"Change": "TSVRRALFVGGSD [T9V]", "target": "CCNF, cyclin fold, Cln2 fusion (human)", "assay": "yeast growth competition, sequencing", "test system": "yeast", "setting": "strong parent motif", "how to read": "reference: not given, higher = stronger binding", "quantity": "normalised enrichment score", "result": 8.65}
{"note": "Repeated from above (series 2):"}
{"Sequence": "CAGGCG", "6-mer enrichment (R)": 1.69}
{"Sequence": "CAGUAA", "6-mer enrichment (R)": 0.646}
{"Sequence": "GGUUCU", "6-mer enrichment (R)": 0.777}
